# Measured values from different studies.
# Parts stem from different laboratories: compare values within a part only. Several values in a cell are separate wells, animals, samples, runs or records. pIC50: −log10 of the molar value.
# Chain of UniProt Q96SW2 (whole entry, looked up): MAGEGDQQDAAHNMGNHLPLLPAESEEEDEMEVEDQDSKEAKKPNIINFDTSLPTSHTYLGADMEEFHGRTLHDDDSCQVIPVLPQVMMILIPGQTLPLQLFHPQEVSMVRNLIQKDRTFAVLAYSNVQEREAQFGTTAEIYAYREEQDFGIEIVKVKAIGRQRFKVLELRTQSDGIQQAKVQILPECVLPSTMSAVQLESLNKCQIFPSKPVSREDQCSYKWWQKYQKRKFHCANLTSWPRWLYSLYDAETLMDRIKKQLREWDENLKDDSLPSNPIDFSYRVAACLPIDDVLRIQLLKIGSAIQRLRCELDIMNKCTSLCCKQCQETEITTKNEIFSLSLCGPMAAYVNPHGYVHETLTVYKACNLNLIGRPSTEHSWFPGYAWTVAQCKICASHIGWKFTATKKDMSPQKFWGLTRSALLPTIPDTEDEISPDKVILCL
# Chain of UniProt P54753 (whole entry, looked up): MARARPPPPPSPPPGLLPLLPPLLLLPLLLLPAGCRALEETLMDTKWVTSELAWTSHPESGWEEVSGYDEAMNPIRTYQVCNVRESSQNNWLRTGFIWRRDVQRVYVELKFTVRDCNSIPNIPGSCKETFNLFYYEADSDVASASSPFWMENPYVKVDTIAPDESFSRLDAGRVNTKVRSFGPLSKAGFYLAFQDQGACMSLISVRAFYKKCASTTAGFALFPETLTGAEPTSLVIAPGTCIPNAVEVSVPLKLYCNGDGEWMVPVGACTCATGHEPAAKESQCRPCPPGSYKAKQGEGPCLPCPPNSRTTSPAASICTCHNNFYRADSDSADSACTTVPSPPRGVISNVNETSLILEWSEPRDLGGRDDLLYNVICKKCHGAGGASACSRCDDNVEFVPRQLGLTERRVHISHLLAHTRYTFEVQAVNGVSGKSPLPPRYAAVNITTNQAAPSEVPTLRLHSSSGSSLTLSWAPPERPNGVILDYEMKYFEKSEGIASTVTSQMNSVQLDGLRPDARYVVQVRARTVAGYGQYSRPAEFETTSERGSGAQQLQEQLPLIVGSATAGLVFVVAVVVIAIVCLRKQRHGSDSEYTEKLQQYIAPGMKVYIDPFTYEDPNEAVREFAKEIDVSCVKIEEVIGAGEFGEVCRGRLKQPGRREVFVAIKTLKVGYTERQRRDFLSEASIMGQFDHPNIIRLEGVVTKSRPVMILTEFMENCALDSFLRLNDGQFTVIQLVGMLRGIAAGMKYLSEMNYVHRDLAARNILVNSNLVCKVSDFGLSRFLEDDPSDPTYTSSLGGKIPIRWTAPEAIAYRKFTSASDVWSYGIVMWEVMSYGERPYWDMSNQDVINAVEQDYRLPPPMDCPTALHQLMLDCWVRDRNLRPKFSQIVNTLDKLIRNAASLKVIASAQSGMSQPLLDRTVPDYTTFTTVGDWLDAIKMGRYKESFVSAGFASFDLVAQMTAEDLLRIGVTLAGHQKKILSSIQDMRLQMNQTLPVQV
# Chain of UniProt O94804 (whole entry, looked up): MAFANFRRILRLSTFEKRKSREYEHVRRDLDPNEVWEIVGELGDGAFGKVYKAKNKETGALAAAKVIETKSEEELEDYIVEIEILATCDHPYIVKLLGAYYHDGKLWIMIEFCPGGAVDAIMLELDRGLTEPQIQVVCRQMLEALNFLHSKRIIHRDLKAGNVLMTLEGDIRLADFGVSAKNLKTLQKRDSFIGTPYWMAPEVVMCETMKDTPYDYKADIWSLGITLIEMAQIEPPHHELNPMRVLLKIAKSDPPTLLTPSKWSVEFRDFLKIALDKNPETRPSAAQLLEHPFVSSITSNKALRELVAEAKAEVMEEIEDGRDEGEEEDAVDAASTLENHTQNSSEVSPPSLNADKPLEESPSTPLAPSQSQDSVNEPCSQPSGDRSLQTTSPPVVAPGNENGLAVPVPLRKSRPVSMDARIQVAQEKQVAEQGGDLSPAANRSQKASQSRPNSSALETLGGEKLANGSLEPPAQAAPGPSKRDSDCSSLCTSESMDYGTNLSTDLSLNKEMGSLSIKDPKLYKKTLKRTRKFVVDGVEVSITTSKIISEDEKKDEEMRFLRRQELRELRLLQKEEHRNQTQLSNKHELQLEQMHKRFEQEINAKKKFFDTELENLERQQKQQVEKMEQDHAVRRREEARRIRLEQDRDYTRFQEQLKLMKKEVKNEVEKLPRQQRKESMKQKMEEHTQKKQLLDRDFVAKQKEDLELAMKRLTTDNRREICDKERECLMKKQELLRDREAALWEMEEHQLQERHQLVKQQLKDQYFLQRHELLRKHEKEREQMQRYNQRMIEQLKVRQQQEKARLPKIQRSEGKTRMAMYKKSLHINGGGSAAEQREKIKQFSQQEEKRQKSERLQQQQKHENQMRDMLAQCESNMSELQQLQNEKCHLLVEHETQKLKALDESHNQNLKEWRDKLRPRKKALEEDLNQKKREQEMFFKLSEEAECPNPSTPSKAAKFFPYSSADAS

# Set 1
# SMILES: CN(C1COC1)C(C)(C)/C=C(\C#N)C(=O)N1CCC[C@H]1Cn1nc(-c2ccc(Oc3ccccc3)cc2F)c2c(N)ncnc21
# Read-out: kinase activity
target,setting,inhibition [%]
"Serine/threonine-protein kinase N1 (PKN1, Homo sapiens, UniProt Q16512)",1 µM,-3
"Serine/threonine-protein kinase LATS2 (LATS2, Homo sapiens, UniProt Q9NRM7)",1 µM,1
"Mitogen-activated protein kinase 12 (MAPK12, Homo sapiens, UniProt P53778)",0.1 µM,-3
"Cyclin-dependent kinase 7 (CDK7, Homo sapiens, UniProt P50613)",0.1 µM,0
"Serine/threonine-protein kinase Nek9 (NEK9, Homo sapiens, UniProt Q8TD19)",0.1 µM,1
"Calcium/calmodulin-dependent protein kinase type II subunit gamma (CAMK2G, Homo sapiens, UniProt Q13555)",0.1 µM,-1
"Receptor tyrosine-protein kinase erbB-2 (ERBB2, Homo sapiens, UniProt P04626)",0.1 µM,-1
"Serine/threonine-protein kinase 10 (STK10, Homo sapiens, UniProt O94804)",0.1 µM,29
"Tyrosine-protein kinase BTK (BTK, Homo sapiens, UniProt Q06187)",1 µM,98
"Discoidin domain-containing receptor 2 (DDR2, Homo sapiens, UniProt Q16832)",1 µM,5
"Non-receptor tyrosine-protein kinase TNK1 (TNK1, Homo sapiens, UniProt Q13470)",1 µM,-1
"Serine/threonine-protein kinase PLK2 (PLK2, Homo sapiens, UniProt Q9NYY3)",0.1 µM,14
"Ephrin type-B receptor 3 (EPHB3, Homo sapiens, UniProt P54753)",1 µM,-2
"Casein kinase II subunit alpha (CSNK2A1, Homo sapiens, UniProt P68400)",1 µM,0
"Serine/threonine-protein kinase TAO3 (TAOK3, Homo sapiens, UniProt Q9H2K8)",1 µM,3
"Tyrosine-protein kinase ZAP-70 (ZAP70, Homo sapiens, UniProt P43403)",1 µM,6
"Serine/threonine-protein kinase pim-3 (PIM3, Homo sapiens, UniProt Q86V86)",1 µM,9
"Mitogen-activated protein kinase 3 (MAPK3, Homo sapiens, UniProt P27361)",1 µM,0
"Mast/stem cell growth factor receptor Kit (KIT, Homo sapiens, UniProt P10721)",1 µM,10

# Set 2
# Structure (SMILES): COCC1CC2C(CCC3C(O)CCC32)c2ccc(O)cc21 (stereo not shown)
cell line,assay,setting,scale,log2 fold change
A549,"DNA microarray, measured: KIF20A",100 µM,baseline: untreated cells,-0.313 and -0.301 and -0.292 and -0.215 and -0.25
A549,"microarray, measured: GZMK",25 µM,baseline: untreated,0
PANC-1,"DNA microarray, measured: CCL22 mRNA",100 µM,baseline: control,3.59
PANC-1,"DNA microarray, measured: MCM10",25 µM,baseline: untreated cells,0.533
PANC-1,"DNA microarray, measured: ADAMTS8 mRNA",25 µM,baseline: control,4.64
SK-OV-3,"microarray, measured: OLIG2",100 µM,baseline: untreated,0
SK-OV-3,"DNA microarray, measured: TMEM108",25 µM,baseline: untreated cells,0.147
PANC-1,"microarray, measured: MCM6",25 µM,baseline: untreated,0.603
SK-OV-3,"DNA microarray, measured: MCM7",25 µM,baseline: untreated cells,0.0149
SK-OV-3,"DNA microarray, measured: KIF20A",25 µM,baseline: untreated cells,-0.0696 and -0.0752 and -0.0508 and -0.0497 and 0.00569

# Set 3
# Target: Sodium-dependent neutral amino acid transporter B(0)AT1 (SLC6A19, Homo sapiens, UniProt Q695T7)
# Chain of UniProt Q695T7 (whole entry, looked up): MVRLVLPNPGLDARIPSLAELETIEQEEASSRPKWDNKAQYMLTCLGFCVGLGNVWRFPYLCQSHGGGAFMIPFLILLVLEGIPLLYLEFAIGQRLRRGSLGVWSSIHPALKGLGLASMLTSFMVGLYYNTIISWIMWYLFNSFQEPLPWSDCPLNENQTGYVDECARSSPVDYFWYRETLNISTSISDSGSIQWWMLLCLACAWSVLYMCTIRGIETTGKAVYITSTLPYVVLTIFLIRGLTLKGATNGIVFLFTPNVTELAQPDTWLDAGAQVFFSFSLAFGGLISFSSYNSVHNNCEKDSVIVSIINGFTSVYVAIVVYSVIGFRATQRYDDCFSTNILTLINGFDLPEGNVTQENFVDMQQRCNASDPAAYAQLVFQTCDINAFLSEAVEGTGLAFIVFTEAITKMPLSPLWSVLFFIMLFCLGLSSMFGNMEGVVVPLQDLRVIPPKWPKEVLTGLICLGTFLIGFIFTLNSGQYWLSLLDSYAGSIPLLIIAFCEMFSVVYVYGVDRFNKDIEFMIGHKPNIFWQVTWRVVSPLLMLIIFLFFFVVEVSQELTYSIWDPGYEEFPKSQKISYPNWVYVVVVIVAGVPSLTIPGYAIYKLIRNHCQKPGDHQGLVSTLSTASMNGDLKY
# Technique: FLIPR membrane potential
# Cells: CHO-BC
# Concentration: concentration not given
# Baseline: 100 µM cinromide set to 0
SMILES,remaining activity
Cc1cc(OCC(=O)OC(C)C)cc(C)c1Cl,102%
CC(C)NC(=O)COc1ccc(Cl)cc1,38.1%
Cc1cc(OCC(=O)SC(C)C)cc(C)c1Cl,131%
Cc1cc(OCC(=O)NCC(C)C)cc(C)c1Cl,83.8%
CNC(=O)COc1cc(C)c(Cl)c(C)c1,42%
Cc1cc(OCC(=O)NC(C)(C)C)cc(C)c1Cl,116%
CCCCNC(=O)COc1cc(C)c(Cl)c(C)c1,105%
Cc1cc(OCC(=O)NCCc2ccccc2)cc(C)c1Cl,95.3%
Cc1cc(OCC(=O)CC(C)C)cc(C)c1Cl,107%
Cc1cc(OCC(=O)NCCO)cc(C)c1Cl,109%
CCCNC(=O)COc1cc(C)c(Cl)c(C)c1,16.4%
CCNC(=O)COc1cc(C)c(Cl)c(C)c1,6.24%

# Set 4
# Compound: CCN1/C(=C/C=C2\CCCC(/C=C/C3=[N+](CC)c4ccccc4C3(C)C)=C2NCCCCCCCCN2CCC(Nc3nc4ccccc4n3Cc3ccc(F)cc3)CC2)C(C)(C)c2ccccc21
# Cell line: U-87 MG
# Concentration: concentration not given
# Baseline: DMSO
assay,log2 fold change
measured: PCNT mRNA,-0.8
measured: CGRRF1 mRNA,0.942
measured: AMPD3 mRNA,2.54
measured: SPRED3 mRNA,1.18
measured: GLB1L mRNA,-0.881
measured: TET1 mRNA,-3.55
measured: MYO7B mRNA,-3.47
measured: LONRF2 mRNA,2.26
measured: HINFP mRNA,1.26
measured: IRAK2 mRNA,1.19
measured: LRFN4 mRNA,-1.36
measured: MSANTD4 mRNA,1.1
measured: P2RX6 mRNA,-2.72
measured: DYNC2I2 mRNA,-1.3
measured: SP140 mRNA,-0.903
measured: AHNAK2 mRNA,-0.869

# Set 5
# Structure (SMILES): Cc1ccc(O)c(C)c1-c1cnc2[nH]c(-c3cnc(N4CCC5(CC4)CC(N4CCN(c6ccc(N[C@H]7CCC(=O)NC7=O)cc6F)CC4)CO5)nc3)cc2c1C#N (single isomer, unassigned)
# PKMYT1: Membrane-associated tyrosine- and threonine-specific cdc2-inhibitory kinase (PKMYT1, Homo sapiens, UniProt Q99640)
# Chain of UniProt Q99640 (whole entry, looked up): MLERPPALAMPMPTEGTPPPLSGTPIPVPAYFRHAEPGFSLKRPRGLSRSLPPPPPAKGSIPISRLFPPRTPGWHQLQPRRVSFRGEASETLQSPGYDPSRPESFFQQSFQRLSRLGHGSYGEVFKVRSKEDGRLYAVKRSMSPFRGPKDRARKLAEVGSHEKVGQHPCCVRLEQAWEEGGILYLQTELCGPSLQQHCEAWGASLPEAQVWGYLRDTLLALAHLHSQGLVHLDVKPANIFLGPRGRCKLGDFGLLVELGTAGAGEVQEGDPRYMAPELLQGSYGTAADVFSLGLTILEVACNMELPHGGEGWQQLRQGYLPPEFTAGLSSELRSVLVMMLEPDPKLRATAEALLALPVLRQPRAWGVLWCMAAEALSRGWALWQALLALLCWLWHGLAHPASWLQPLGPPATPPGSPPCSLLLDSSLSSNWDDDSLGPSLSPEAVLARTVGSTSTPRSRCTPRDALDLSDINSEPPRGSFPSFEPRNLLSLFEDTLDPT
target or system,assay,setting,inhibition
PKMYT1,,0.1235 µM,95.5%
PKMYT1,,4.572 nM,54.4% and 49.5%
PKMYT1,"binding, HTRF",1.52 nM,23.9% and 26.8%
NCI-H1568,cell proliferation,4.572 nM,1.53% and 1.31%
HCC1569,"automated capillary immunoblot, measured: CDK1 phospho-Thr14","1 nM, 8 h",-1.55%
MDA-MB-436,cell proliferation,10000 nM,95.9%
PKMYT1,,0.004572 µM,50.6%
NCI-H1568,cell proliferation,1.524 nM,-3.34% and 0.26% and -0.23%
PKMYT1,,0.00015 µM,-4.07% and -4.26%
"Protein cereblon (CRBN, Homo sapiens, UniProt Q96SW2)",binding,13.72 nM,7.65% and 8.99%
PKMYT1,,0.0005081 µM,9.88%
PKMYT1,"enzyme activity, inhibitor",1 µM,97.1%
HCC1569,cell proliferation,10000 nM,92.4%
PKMYT1,"binding, HTRF",1111.11 nM,101% and 98.6%

# Set 6
# Compound: C[C@@H]1CN(c2ccc(-c3cc(C(=O)NCCOCCOCCOCCOCCOCCOCCNC(=O)/C=C/c4[nH]cc(C(=O)N[C@@H](CC(N)=O)c5ccc(F)c(Cl)c5)c4-c4ccc(Cl)cc4F)ccc3F)cc2NC(=O)c2ccc(F)cc2C(F)(F)F)C[C@H](C)N1C
# Read-out: thermal unfolding
# Technique: differential scanning fluorimetry
# Concentration: 5.5 µM
# Reading: higher = more unfolded
# DCAF1: DDB1- and CUL4-associated factor 1 (DCAF1, Homo sapiens, UniProt Q9Y4B6)
# Chain of UniProt Q9Y4B6 (whole entry, looked up): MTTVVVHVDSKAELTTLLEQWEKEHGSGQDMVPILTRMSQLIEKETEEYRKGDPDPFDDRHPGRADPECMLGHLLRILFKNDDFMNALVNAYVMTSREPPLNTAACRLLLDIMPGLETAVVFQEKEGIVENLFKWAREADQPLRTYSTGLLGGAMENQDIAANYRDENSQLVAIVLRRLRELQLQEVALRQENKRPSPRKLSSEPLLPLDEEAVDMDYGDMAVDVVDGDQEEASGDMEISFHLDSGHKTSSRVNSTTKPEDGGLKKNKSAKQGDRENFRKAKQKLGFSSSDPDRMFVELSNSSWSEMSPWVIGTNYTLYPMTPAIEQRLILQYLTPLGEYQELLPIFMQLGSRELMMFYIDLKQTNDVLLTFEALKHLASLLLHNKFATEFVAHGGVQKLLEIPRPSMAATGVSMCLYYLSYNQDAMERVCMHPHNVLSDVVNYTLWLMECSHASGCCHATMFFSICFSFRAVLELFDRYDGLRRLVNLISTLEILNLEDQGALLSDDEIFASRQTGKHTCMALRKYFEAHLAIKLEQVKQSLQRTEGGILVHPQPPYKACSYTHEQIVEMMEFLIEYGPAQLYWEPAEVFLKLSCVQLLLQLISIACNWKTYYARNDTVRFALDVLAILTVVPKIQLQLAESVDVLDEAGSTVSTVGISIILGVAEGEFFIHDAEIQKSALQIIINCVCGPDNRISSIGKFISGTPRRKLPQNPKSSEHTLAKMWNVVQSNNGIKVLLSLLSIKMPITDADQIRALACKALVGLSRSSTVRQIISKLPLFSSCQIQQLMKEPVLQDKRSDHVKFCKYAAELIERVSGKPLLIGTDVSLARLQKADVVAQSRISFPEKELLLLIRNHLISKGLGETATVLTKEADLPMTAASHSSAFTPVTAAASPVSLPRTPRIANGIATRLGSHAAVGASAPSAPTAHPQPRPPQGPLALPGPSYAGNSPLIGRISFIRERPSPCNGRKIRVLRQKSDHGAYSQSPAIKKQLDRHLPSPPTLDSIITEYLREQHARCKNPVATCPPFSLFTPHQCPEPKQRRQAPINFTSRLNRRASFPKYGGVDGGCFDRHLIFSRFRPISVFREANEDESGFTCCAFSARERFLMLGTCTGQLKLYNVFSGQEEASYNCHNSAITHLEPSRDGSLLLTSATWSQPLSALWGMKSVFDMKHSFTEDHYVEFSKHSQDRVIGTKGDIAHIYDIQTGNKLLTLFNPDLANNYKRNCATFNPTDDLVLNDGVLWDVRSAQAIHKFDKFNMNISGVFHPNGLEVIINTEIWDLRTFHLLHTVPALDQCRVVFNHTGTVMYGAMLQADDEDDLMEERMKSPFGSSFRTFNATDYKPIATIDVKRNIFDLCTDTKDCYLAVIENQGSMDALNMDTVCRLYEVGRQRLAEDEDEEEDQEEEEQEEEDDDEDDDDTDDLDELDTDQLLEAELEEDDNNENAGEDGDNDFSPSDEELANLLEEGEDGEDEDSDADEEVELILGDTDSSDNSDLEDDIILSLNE
# WDR5: WD repeat-containing protein 5 (WDR5, Homo sapiens, UniProt P61964)
target,setting,SYPRO Orange fluorescence [a.u.]
DCAF1,65.21 °C,53500
DCAF1,89.21 °C,33000
DCAF1,26.8 °C,7510
WDR5,33.2 °C,13800
WDR5,55.01 °C,16800
DCAF1,55.81 °C,29700
WDR5,87.01 °C,59300
WDR5,31.8 °C,13700
WDR5,63.81 °C,15500
DCAF1,36.6 °C,10600
WDR5,38.8 °C,13900

# Set 7
# SMILES: O=C(O)C1Oc2cc(F)ccc2N(Cc2ccccc2)C1=O (stereo not shown)
# Organism: Arabidopsis thaliana
# Strain: Col-0
# Medium: seedlings
assay,setting,scale,inhibition [%]
root length,50 µg/mL,baseline: water control,27.8
root length,25 µg/mL,baseline: water control,20.2
root length,50 µg/mL,,27.8
root length,25 µg/mL,,20.2
hypocotyl length,12.5 µg/mL,,12.8
hypocotyl length,100 µg/mL,,36.4
root length,6.25 µg/mL,baseline: water control,10.8

# Further values, each from its own experiment
# KRAS G12D GDP-bound: GTPase KRas, GDP-bound (KRAS, Homo sapiens, UniProt P01116, G12D)
Compound,target or system,assay,system,setting,scale,endpoint,result
CCN1CCN(Cc2ccc(COc3c(-c4c(C)c(F)cc5[nH]ncc45)c(C4CC4)cc4c(N5C[C@@H]6C[C@H]5CN6)nc(OC5CCOCC5)nc34)cc2)C(=O)C1,AsPC-1 (KRAS G12D),CellTiter-Glo,,300 pM,,viability,98.4% and 104% and 88.2% and 100%
CCn1cnc2c(NCc3nc4cc(F)c(F)cc4[nH]3)nc(N3CCn4ncnc4C3)nc21,"Cyclin-dependent kinase 12, with cyclin K (CDK12, Homo sapiens, UniProt Q9NYV4)","inhibitor, ADP-Glo kinase",,,,pIC50,6.64
Cc1ncsc1-c1ccc(C2(NC(=O)C3CC(O)CN3C(=O)C(NC(=O)c3ccc(COc4c(-c5c(C)c(F)cc6[nH]ncc56)c(C5CC5)cc5c(N6CC7CC6CN7)nc(OC6CCOCC6)nc45)cc3)C(C)(C)C)CC2)cc1 (stereo not shown),KRAS G12D GDP-bound,"SPR, multi-cycle",immobilized KRAS G12D,"binary, geometric mean",,koff,0.00692 s⁻¹
O=C(Nc1ccccc1)Nc1cccc(Oc2ccc3nccn3n2)c1,"cAMP-dependent protein kinase catalytic subunit alpha (PRKACA, Homo sapiens, UniProt P17612)",cell-free assay,,1 µM,,remaining signal,52%
Cc1ncsc1-c1ccc(C2(NC(=O)C3CC(O)CN3C(=O)C(NC(=O)c3ccc(COc4c(-c5c(C)c(F)cc6[nH]ncc56)c(C5CC5)cc5c(N6CC7CC6CN7)nc(OC6CCOCC6)nc45)cc3)C(C)C)CC2)cc1 (stereo not shown),KRAS G12D GDP-bound,"SPR, single-cycle",immobilized KRAS G12D,"binary, geometric mean",,koff,0.00943 s⁻¹
CCn1cnc2c(NCc3nc4ccc(F)c(F)c4[nH]3)nc(N3CCn4ncnc4C3)nc21,MDA-MB-231,"degrader, western blot, measured: cyclin K",,"50 nM, 24 h",,degradation,69.4%
Cc1ncsc1-c1ccc(C(CO)NC(=O)C2CC(O)CN2C(=O)C(C(C)C)n2cc(-c3ccc(COc4c(-c5c(C)c(F)cc6[nH]ncc56)c(C5CC5)cc5c(N6CC7CC6CN7)nc(OC6CCOCC6)nc45)cc3)nn2)cc1 (stereo not shown),,"qRT-PCR, measured: FOSL1","mouse, PK-59 xenograft, tumour","30 mg/kg, 6 h, unit not given",baseline: vehicle,mRNA level,0.086 and 0.13 and 0.083 and 0.0827 and 0.0862
Cc1nc(C)c(C=[N+]([O-])C(C)(C)C)nc1C,,footprint test,MPTP-induced Parkinson's disease mouse model,"30 mg/kg, mean of three trials",,corridor crossing time,5.14 s and 4.94 s and 5.78 s and 7.2 s and 5.33 s and 5.74 s and 7.54 s and 6.61 s

# Repeated from above (set 4):
assay,log2 fold change
measured: P2RX6 mRNA,-2.72
measured: MSANTD4 mRNA,1.1
measured: CGRRF1 mRNA,0.942
measured: AHNAK2 mRNA,-0.869
measured: LONRF2 mRNA,2.26
